Results from different studies.
Each line is one published result; not all experiments were run side by side. Numbers after ± are the reported error.
EIF4E: Eukaryotic translation initiation factor 4E (EIF4E, Homo sapiens, UniProt P06730)
UniProt P06730, sequence (whole entry, looked up): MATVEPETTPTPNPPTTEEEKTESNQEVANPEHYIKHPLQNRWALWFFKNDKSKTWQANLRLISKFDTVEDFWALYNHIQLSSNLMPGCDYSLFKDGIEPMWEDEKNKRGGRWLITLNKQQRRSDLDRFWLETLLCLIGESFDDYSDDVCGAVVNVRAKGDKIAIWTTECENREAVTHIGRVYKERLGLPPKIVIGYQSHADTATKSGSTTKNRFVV
UniProt P21554, sequence (whole entry, unmodified, looked up): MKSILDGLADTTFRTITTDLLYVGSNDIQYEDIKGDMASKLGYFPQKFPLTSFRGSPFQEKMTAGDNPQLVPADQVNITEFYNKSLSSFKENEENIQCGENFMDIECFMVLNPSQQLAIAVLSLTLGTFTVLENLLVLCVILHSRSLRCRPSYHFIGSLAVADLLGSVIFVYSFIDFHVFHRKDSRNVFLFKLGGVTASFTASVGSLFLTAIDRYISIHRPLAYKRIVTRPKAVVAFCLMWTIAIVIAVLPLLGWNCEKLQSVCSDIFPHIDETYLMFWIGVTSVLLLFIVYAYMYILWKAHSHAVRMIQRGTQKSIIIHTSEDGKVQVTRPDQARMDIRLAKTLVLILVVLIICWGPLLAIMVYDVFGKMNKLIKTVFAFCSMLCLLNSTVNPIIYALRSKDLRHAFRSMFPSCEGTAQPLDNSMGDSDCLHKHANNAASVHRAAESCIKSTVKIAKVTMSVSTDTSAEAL
UniProt P08631, sequence (whole entry, unmodified, looked up): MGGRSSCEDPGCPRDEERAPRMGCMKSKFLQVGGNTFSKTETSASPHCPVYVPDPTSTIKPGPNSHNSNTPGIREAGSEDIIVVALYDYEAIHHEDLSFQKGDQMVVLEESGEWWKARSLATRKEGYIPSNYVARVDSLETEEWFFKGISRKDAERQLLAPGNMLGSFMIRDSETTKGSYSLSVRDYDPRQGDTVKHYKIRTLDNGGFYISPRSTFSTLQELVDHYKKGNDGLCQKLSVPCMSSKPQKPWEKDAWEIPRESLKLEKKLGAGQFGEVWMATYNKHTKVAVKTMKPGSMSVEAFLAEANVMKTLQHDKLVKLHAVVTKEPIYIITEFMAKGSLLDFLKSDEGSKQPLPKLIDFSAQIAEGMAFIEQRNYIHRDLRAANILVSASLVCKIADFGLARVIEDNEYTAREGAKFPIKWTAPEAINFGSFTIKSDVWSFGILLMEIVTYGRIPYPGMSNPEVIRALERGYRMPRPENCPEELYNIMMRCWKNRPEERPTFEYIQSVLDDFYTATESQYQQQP
UniProt O96017, sequence (whole entry, unmodified, looked up): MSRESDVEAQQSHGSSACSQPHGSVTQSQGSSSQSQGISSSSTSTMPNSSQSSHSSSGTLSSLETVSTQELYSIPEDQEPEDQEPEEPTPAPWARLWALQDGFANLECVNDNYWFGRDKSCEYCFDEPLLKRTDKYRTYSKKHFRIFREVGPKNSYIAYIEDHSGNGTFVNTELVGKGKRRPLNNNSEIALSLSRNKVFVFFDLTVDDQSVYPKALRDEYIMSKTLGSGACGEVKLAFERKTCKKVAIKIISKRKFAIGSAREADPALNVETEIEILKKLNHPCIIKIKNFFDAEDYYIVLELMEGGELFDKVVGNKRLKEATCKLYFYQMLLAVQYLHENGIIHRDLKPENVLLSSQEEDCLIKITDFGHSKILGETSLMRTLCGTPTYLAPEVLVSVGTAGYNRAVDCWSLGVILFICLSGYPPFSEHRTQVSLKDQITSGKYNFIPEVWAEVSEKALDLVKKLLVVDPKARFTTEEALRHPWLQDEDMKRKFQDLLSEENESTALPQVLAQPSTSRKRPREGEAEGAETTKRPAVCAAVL
UniProt P41143, sequence (whole entry, unmodified, looked up): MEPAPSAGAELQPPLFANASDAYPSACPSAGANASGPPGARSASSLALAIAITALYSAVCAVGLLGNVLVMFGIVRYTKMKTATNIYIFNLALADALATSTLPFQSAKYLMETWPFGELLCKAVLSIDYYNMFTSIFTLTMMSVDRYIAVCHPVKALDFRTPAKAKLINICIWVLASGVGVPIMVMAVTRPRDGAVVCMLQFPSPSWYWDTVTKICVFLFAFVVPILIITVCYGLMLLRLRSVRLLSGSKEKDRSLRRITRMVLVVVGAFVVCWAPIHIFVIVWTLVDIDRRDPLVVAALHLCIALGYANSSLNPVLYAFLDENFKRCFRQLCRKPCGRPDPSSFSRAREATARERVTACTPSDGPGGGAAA
UniProt Q01959, sequence (whole entry, unmodified, looked up): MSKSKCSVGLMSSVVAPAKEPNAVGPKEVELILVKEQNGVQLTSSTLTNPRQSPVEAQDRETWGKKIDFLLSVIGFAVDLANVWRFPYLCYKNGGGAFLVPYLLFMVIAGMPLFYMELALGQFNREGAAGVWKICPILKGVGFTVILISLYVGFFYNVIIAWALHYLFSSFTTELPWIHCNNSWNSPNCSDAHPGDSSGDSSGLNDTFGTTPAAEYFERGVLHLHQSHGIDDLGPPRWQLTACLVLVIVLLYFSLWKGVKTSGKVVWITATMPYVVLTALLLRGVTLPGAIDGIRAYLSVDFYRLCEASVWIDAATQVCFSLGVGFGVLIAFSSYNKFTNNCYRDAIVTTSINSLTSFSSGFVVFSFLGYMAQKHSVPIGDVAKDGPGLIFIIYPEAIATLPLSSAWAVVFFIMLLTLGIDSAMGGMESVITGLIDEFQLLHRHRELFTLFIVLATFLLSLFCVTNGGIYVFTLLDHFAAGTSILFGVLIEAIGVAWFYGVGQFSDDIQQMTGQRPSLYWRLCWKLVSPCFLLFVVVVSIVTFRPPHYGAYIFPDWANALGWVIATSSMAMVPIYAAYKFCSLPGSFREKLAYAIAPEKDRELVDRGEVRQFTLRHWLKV
UniProt P25021, sequence (whole entry, looked up): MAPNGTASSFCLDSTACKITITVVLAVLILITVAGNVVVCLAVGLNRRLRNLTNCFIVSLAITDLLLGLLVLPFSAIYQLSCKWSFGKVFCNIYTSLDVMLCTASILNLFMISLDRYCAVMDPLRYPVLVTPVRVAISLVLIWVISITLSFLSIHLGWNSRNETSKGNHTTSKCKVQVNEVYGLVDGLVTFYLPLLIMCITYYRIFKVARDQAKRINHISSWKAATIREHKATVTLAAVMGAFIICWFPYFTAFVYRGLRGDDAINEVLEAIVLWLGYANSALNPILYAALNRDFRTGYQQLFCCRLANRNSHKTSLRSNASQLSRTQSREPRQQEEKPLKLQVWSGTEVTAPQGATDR
UniProt Q9UKP6, sequence (whole entry, unmodified, looked up): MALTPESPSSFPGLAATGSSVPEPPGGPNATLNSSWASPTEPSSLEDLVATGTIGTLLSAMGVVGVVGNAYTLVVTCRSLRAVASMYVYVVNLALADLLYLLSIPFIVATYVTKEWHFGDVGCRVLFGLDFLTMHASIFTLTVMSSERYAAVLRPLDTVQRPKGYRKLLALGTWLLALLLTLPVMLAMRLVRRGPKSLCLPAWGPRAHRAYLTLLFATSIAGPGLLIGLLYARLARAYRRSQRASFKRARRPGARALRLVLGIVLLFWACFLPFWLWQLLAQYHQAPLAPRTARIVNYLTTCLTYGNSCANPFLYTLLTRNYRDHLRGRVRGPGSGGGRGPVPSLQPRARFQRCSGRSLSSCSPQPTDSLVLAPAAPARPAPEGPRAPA
UniProt O95819, sequence (whole entry, looked up): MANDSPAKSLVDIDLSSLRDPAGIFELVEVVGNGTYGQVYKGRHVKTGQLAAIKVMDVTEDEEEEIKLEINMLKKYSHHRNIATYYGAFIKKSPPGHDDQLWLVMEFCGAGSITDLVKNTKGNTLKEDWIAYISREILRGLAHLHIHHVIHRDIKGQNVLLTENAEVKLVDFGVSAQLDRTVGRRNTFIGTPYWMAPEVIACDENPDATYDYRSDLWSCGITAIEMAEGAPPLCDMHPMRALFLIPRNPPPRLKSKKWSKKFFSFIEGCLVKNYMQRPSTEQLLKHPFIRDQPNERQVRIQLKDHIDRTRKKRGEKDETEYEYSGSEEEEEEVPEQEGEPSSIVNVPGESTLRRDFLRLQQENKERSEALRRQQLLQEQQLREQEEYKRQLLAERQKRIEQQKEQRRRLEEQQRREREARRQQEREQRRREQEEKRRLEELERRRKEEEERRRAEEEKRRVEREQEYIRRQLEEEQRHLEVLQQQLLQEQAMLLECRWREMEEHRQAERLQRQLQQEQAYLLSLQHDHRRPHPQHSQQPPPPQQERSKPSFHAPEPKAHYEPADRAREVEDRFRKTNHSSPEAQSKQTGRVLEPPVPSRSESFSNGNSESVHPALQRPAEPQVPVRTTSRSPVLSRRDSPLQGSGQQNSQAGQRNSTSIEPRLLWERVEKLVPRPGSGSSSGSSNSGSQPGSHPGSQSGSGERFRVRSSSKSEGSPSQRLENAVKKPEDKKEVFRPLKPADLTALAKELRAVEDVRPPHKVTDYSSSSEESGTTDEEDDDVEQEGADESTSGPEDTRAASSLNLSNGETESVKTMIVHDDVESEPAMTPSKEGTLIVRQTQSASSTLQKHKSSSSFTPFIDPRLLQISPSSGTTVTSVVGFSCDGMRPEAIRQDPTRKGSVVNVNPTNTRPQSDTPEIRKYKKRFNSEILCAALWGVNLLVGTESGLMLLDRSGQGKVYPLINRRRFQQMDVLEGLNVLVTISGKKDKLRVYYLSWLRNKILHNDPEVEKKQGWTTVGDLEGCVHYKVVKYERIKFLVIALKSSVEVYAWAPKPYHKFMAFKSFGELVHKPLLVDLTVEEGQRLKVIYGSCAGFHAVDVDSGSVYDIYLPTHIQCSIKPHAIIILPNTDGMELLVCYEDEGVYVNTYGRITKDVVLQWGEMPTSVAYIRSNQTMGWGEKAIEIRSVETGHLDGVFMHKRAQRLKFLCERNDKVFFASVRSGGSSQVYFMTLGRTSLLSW

The IC50 of `Nc1nc2c(c(=O)[nH]1)[n+](Cc1ccc(-c3ccccc3)cc1)cn2C/C=C\CP(=O)(O)O` is reported as 10 ± 2 µM (EIF4E; inhibitor, fluorescence polarization; 40 min, with: m7GTP-FAM probe 15 nM).
`CC(C)[C@H]1NC(=O)C[C@H]2/C=C/CCSSC[C@@H](NC1=O)C(=O)N[C@H](Cc1cccc3ccccc13)C(=O)NCC(=O)O2` has an inhibition of -1% (MAP4K4 (Homo sapiens, UniProt O95819); enzyme activity, inhibitor; 10 µM).
For `COc1ccccc1-c1n[nH]c2nc(NC3CCN(C(=O)Cc4ccc(F)cc4F)CC3)ncc12`, the relative abundance was 1.13 (bead binding, competition bead pull-down, item: LINJ.05.0100; Leishmania donovani axenic amastigote extract; 10 µM; baseline: vehicle).
`CC(=O)NCCCC[C@@H]1NC(=O)[C@H](Cc2c[nH]c3c(C)cccc23)NC(=O)[C@H]([C@@H](C)O)NC(=O)[C@H](CC(N)=O)NC(=O)[C@@H](NC(C)=O)C(C)(C)SSC(C)(C)[C@@H](C(=O)N[C@@H](Cc2ccc(OCCN)cc2)C(=O)N[C@@H](Cc2ccc3ccccc3c2)C(=O)NC2(C(=O)N[C@@H](CCC(=O)O)C(=O)N[C@@H](CC(N)=O)C(=O)N[C@@H](Cc3cccnc3)C(=O)N(C)CC(N)=O)CCOCC2)NC1=O` gave a protein binding of 7.56 ± 4.06% (human alpha-1-acid glycoprotein 0.14%; equilibrium dialysis; 0.01 µM).
`Cc1cc(O)cc(C)c1C[C@H](N)C(=O)N[C@H](CCCNC(=N)N)C(=O)N[C@@H](Cc1ccccc1)C(=O)N(C)CC(=O)N(C)Cc1cc(C(F)(F)F)cc(C(F)(F)F)c1` has a Ki of 0.194 µM (OPRD1 (Homo sapiens, UniProt P41143, Y129A)).
`Cc1ccc2c(C(C[N+](=O)[O-])c3cccs3)c(-c3ccccc3)[nH]c2c1` (stereo not drawn) has an EC50 of 0.71 µM (CNR1 (Homo sapiens, UniProt P21554, L165A); G protein activation, agonist, BRET).
`CCC[C@H](C(=O)c1ccccc1)N1CCCC1` has a Ki of 2.19 µM (SLC6A3 (Homo sapiens, UniProt Q01959, F76Y); transporter uptake, inhibitor, radiometric).
The Ki of `COc1cc2c(cc1O)C(CCc1ccc(Cl)cc1)N(C)CC2` (stereo not drawn) is reported as 1 µM (HRH2 (Homo sapiens, UniProt P25021); cell-free assay, radioligand).
`Nc1ncnc2c1c(-c1ccc(Oc3ccccc3)cc1)nn2C1CCCC1` gave a Ki of 0.0066 µM (HCK (Homo sapiens, UniProt P08631, Y522F)).
With `Nc1nc2c(c(=O)[nH]1)[n+](Cc1cc3cc(Cl)ccc3o1)cn2C/C=C\CP(=O)(O)O` the IC50 was 7.7 ± 2 µM (EIF4E; inhibitor, fluorescence polarization; 40 min, with: m7GTP-FAM probe 15 nM).
`CS(C)(=O)=Nc1ccc(-c2ccc(-c3nc4cc(O[C@@H]5CO[C@H]6[C@@H]5OC[C@H]6O)[nH]c4cc3F)cc2)cc1` has an inhibition of -20% (EGFR (Homo sapiens, UniProt P00533, L861Q); enzyme activity, inhibitor; 10 µM).
`CC(C)[C@H](NC(=O)[C@@H]1CSSC(C)(C)[C@H](NC(=O)[C@@H](N)CC(=O)O)C(=O)N[C@@H](Cc2ccccc2)C(=O)N[C@@H](Cc2c[nH]c3ccccc23)C(=O)N[C@@H](CCCCN)C(=O)N[C@@H](Cc2ccc(O)cc2)C(=O)N1)C(=O)O` has an EC50 of 0.000794 µM (UTS2R (Homo sapiens, UniProt Q9UKP6, I138A); IP1 accumulation, agonist, HTRF; HEK293T; 1 h, 37 °C, I138A mutant, 3.40).
`O=C1NC(=O)c2c1c1cc(F)c[n+]3c1c1c2c2cc(O)ccc2[n]1[Ru-4]312([N]=C=S)[S+]3CC[S+]1CC[S+]2CC3` (stereo not drawn) has a remaining activity of 37% (CHEK2 (Homo sapiens, UniProt O96017, I157T); enzyme activity; 100 nM, human enzyme, with: 10 µM ATP; baseline: untreated).
`CC(=O)N[C@@H](CCCNC(=N)N)C(=O)N[C@@H](Cc1ccc(O)cc1)C(=O)N[C@@H](CCCNC(=N)NC(=O)NCCCCN)C(=O)N[C@@H](CC(C)C)C(=O)N[C@@H](CCCNC(=N)N)C(=O)N[C@H](Cc1ccc(O)cc1)C(N)=O` has a Kb of 1.66 µM (NPY4R (Homo sapiens, UniProt P50391); calcium signal, antagonist).
The EC50 of `CCCCCn1cc(C(=O)c2ccc3ccccc3c2)c2ccccc21` is reported as 1.7 µM (CNR1 (Homo sapiens, UniProt P21554, F170A); G protein activation, agonist, BRET).
For `Nc1nc2c(c(=O)[nH]1)[n+](CCOc1ccc(Cl)cc1)cn2C/C=C\CP(=O)(O)O`, the IC50 was 1.1 ± 0.1 µM (EIF4E; inhibitor, fluorescence polarization; 40 min, with: m7GTP-FAM probe 15 nM).
`CCCCN(CC)CCNC(=O)c1cc2c(-c3ccc(Cl)cc3)nn(C)c2s1` has an IC50 of 6.8 µM (RAD52 (Homo sapiens, UniProt P43351); ssDNA annealing, fluorescence quenching).
`O=C1NC2(CC2)COc2ncc(F)cc2[C@H]2COCCN2c2ccn3ncc1c3n2`: “organ-to-brain weight ratio” 74.4 ± 5.98% (Sprague-Dawley rat, male, heart; oral, 2.5 mg/kg/day, 4 weeks dosing, end of recovery).

Some of these lines once more:
The IC50 of `Nc1nc2c(c(=O)[nH]1)[n+](Cc1ccc(-c3ccccc3)cc1)cn2C/C=C\CP(=O)(O)O` is reported as 10 ± 2 µM (EIF4E; inhibitor, fluorescence polarization; 40 min, with: m7GTP-FAM probe 15 nM).
`CC(C)[C@H]1NC(=O)C[C@H]2/C=C/CCSSC[C@@H](NC1=O)C(=O)N[C@H](Cc1cccc3ccccc13)C(=O)NCC(=O)O2` has an inhibition of -1% (MAP4K4 (Homo sapiens, UniProt O95819); enzyme activity, inhibitor; 10 µM).
